Assay results from different studies.
Protocols differ between the studies behind these lines. “And” joins repeats or separate records; there may be more than shown. ± gives the spread as reported.

CCN(CCO)CCCC(C)Nc1ccnc2cc(Cl)ccc12 (stereo not drawn)  Cmax (human patient, whole blood; oral, 400 mg, steady state): 1950 ng/mL and 1050 ng/mL and 1340 ng/mL and 1270 ng/mL and 921 ng/mL and 1180 ng/mL and 1450 ng/mL
CCn1cc(C(=O)N2CCOCC2)c(=O)c2cc(NC3Cc4ccccc4C3)cnc21  Cmax (human, fasted; oral suspension, 150 mg single dose, arithmetic mean): 294 ng/mL
C[C@H](CCC(=O)NCC(=O)O)[C@H]1CC[C@H]2[C@@H]3[C@H](O)C[C@@H]4C[C@H](O)CC[C@]4(C)[C@H]3C[C@H](O)[C@]12C  Cmax (human, plasma; oral, dose not given; baseline: untreated): 227 ± 30 nM
CC[C@H](C)[C@@H]([C@@H](CC(=O)N1CCC[C@H]1[C@H](OC)[C@@H](C)C(=O)N[C@@H](Cc1ccccc1)C(=O)NCCCO)OC)N(C)C(=O)[C@@H](NC(=O)[C@H](C(C)C)N(C)C)C(C)C  Cmax (human patients, plasma; intravenous, 36 mg/m², cycle 1 geometric mean): 6.73 ng/mL
O=C(O)CCCCCCCCC(=O)O  Cmax (human, plasma; concentration not given, endogenous baseline diurnal): 66.2 ± 9.9 nM
COc1cc2nccc(Oc3ccc(NC(=O)c4cc5c(n(-c6ccccc6)c4=O)CCCC5=O)nc3)c2cc1OC  Cmax (human patients; oral, day 29, with venetoclax 6 mg once daily): 565 ng/mL
O=C([O-])CCCCCCCNC(=O)c1ccccc1O.[Na+]  Cmax (human; oral, dose not given, steady state): 1830 ng/mL
NC(=O)N1c2ccccc2C=Cc2ccccc21  Cmax (healthy human subjects, plasma; oral, dose not given, day 20, twice daily, alone): 7780 ng/mL
Cc1cc(C)c(CNC(=O)c2cc(Cl)c3c(c2C)O[C@@](C)([C@H]2CC[C@H](N(C)C)CC2)O3)c(=O)[nH]1  Cmax (geometric LS mean; healthy male humans, plasma; oral, dose not given, with: itraconazole): 307 ng/mL
CN(C)C(=O)c1cc2cnc(Nc3ccc(N4CCNCC4)cn3)nc2n1C1CCCC1  Cmax (human, severe renal impairment, plasma; oral, 400 mg, geometric mean): 538 ng/mL
C=CC(=O)N1CCC[C@@H](n2c(=O)n(-c3ccc(Oc4ccccc4)cc3)c3c(N)nccc32)C1  Cmax (human, fed, plasma; oral, 120 mg, geometric mean): 27.8 ng/mL
CCO  Cmax (human, breath; 0.5 g/kg, with: placebo): 66.5 ± 11.4 mg/100 mL
CC(C)[C@@H]1CC[C@@H](C)C[C@H]1OC(=O)O[C@@H](C)OC(=O)[C@H]1[C@@H]2C[C@H](F)[C@@](N)(C(=O)O)[C@@H]21  Cmax (human, plasma; oral, 20 mg, fed, single dose): 30.7 ng/mL
Cn1nnc2c(C(N)=O)ncn2c1=O  Cmax (human patients, plasma; oral, 40 mg/m2, day 5, dose level DL5, median, with: talazoparib 600 µg/m2): 1600 ng/mL
CC(=O)c1cc(C(=O)N[C@@H](C)Cn2ccc(-c3ccc(C#N)c(Cl)c3)n2)[nH]n1  Cmax (healthy male human, plasma; intravenous infusion, 100 µg 14C-labelled, 15 min infusion, microtracer, geometric mean): 2350 pg eq/mL

Some of these lines once more:
C[C@H](CCC(=O)NCC(=O)O)[C@H]1CC[C@H]2[C@@H]3[C@H](O)C[C@@H]4C[C@H](O)CC[C@]4(C)[C@H]3C[C@H](O)[C@]12C  Cmax (human, plasma; oral, dose not given; baseline: untreated): 227 ± 30 nM
CCO  Cmax (human, breath; 0.5 g/kg, with: placebo): 66.5 ± 11.4 mg/100 mL
